Assay results of several laboratories.
Each numbered part is a random draw from the data of one study; scales do not carry over between parts. Positions count from the first letter of the parent shown.

Study 1
Target: CCNA2, cyclin fold, Cln2 fusion (human)
Technique: yeast growth competition, sequencing
Sample: yeast
Notes: strong parent motif
Relative to: not given
Direction: higher = stronger binding
Starting sequence: GMNC docking peptide (human); KNAKRNLSSEFAN; partner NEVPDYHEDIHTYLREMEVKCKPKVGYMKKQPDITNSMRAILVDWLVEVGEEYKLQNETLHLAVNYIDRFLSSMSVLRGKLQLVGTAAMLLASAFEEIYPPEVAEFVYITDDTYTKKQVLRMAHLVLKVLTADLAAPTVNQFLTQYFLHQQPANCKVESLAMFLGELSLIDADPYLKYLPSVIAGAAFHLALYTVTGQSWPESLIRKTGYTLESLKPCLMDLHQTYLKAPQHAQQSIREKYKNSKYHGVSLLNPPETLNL
Variant	normalised enrichment score
K4D	0.295
N2K	5.98
R5P	-0.164
S9A	5.71
N6H	0.564
S8W	4.32
S9T	5.09
N6G	1.63
E10S	2.51
N6Y	-0.112
F11W	2.65
F11H	0.205
A3V	6.04
A12H	4.71
S8L	6.5
S8K	2.69
S8V	4.97
E10W	2.36
N2T	6.1
N2V	4.3
K4G	1.04
N6T	1.7
A3F	5.39
R5W	0.362
S9K	5.77

Study 2
Target: Interferon regulatory factor 7, full length, phosphomimetic (IRF7, Homo sapiens, UniProt Q92985, residues 1-503, S471D/S472D/S475D/S476D/S477D/S483D/S484D/S487D)
Technique: protein-binding microarray
Molecule type: double-stranded DNA, one strand shown
Sample: in vitro
Concentration: 2200 nM top
Notes: 60-bp whole probe
Together with: salmon DNA 0.4 mg/ml
Relative to: random background probes
Direction: higher = stronger binding
Shared flanks, not repeated: GCCTAGCAC … GTCTTGATTCGCTTGACGCTGCTG
Construct (chain): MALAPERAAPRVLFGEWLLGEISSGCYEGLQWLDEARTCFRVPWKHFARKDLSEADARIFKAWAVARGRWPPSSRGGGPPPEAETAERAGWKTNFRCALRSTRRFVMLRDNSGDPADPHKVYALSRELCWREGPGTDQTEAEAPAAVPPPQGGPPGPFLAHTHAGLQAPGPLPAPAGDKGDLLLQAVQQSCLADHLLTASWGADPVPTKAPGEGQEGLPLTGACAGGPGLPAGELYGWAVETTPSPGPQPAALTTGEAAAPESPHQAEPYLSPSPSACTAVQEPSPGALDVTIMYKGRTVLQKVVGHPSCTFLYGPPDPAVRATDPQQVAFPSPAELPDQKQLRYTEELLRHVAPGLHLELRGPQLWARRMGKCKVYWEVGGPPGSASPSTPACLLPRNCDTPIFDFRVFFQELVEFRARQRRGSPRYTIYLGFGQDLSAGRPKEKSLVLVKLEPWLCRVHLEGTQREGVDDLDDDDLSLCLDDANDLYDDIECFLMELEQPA
Oligonucleotide	fitted relative affinity [z-score]
GAAGGACTGCTTCTCCTGACGTGCTAG	0.551
TTAGATCTCGGTCTCGATTAGTGCTAG	0.55
TTGGTTCTCAGCTTGGGGCAGTGCTAG	0.786
TTATGTTTCGGTTTCGGTTAGTGCTAG	15.3
TCATTTTTAGATATCTTACTGTGCTAG	1.18
GACGGACTGCTTCCCCTGACGTGCTAG	0.252
TCAGGTATCCTTTTCCTTTAGTGCTAG	2.47
GTAGGTATCGACTTTCGGTTAGTGCTA	6.02
GTCGGACTGGGGTTTCGGGACGTGCTA	0.62
GACGGTATCGGTCTCGGTACGTGCTAG	0.305
GACGGATTGGACACTGGGGACGTGCTA	-0.497
TTAGGATTGGACTATCGGTTAGTGCTA	-0.0278
TTAGGACTGAGTATCGATTAGTGCTAG	-0.162
GACGAACTGGGGTATCGAGGCGTGCTA	-0.0435
GACGGACTGGGTATCGGCACGTGCTAG	-0.81
AGGAAGATCATTCTCACTGCGTGCTAG	-0.23
TGGAGAGCATATTCTGTGACGTGCTAG	-0.471
GATGAACTGAGTTTCGAGACGTGCTAG	2.12
TACTCTTGTGACTATGGACCGTGCTAG	0.633
CCCTAGGGGCTCTCAGAGATGTGCTAG	-2.09
TCAGATATCAGACTGGATTAGTGCTAG	0.011
GACGGTTTCGGTATTGGGACGTGCTAG	7.38

Study 3
Target: ABI1, truncated, D143A, DHFR fusion (Arabidopsis thaliana)
Technique: DHFR PCA, deep sequencing
Sample: yeast
Notes: methotrexate growth selection, single substitutions
Together with: (+)-ABA 0.0091 µM
Relative to: wild-type fitted maximum
Direction: higher = stronger binding
Starting sequence: PYL1, truncated, DHFR fusion (Arabidopsis thaliana); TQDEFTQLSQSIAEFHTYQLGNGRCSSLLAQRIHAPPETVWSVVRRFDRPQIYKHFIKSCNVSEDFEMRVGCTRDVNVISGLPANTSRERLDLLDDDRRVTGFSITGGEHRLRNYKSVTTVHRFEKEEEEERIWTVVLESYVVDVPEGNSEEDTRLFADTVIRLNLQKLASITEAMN; partner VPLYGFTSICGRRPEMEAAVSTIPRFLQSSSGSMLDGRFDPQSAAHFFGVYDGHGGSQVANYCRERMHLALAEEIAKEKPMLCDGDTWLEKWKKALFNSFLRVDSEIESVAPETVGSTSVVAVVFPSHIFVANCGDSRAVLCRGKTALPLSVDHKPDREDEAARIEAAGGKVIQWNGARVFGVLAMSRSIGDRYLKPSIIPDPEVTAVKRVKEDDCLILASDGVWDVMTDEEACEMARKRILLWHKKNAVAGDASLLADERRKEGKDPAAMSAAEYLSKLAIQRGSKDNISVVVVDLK
Variant	relative binding score [%]
V78F	112
G108T	-0.908
T119R	-3.49
D96P	-11.6
L8Q	5.92
D65I	-6.23
C25S	-0.273
A35P	-3.04
G71E	-1.23
Y53S	2.33
F5I	34.8
I133F	6.77
Q2M	54.2
S63N	20.8
C25A	18.2
G107H	10.3
P37Y	1.04
V40T	-1.68
N22I	23
N85C	55

Study 4
Target: ATF2, bZIP domain (human)
Technique: DHFR protein complementation
Sample: yeast
Notes: single substitutions, most at no-binding floor
Relative to: wild-type JUN-FOS pair
Direction: higher = stronger binding
Starting sequence: JUN, bZIP domain (human); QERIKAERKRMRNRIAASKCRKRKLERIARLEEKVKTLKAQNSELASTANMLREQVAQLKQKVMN; partner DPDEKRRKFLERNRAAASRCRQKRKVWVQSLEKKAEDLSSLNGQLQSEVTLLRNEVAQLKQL
Variant	binding fitness [natural log]
E33M	-1.49
L31H	-1.36
A40Q	-1.42
A40K	-1.12
M51E	-1.42
A57R	-1.45
K36M	-1.36
T37L	-1.26
S47C	-1.19
S43I	-1.43
T48H	-1.04
T37R	-1.29
I28E	-1.37

Study 5
Target: RNA binding protein fox-1 homolog 2, RRM domain, GST-SBP tag (RBFOX2, Homo sapiens, UniProt O43251-10, residues 100-194)
Technique: RNA Bind-n-Seq
Molecule type: RNA
Sample: in vitro
Concentration: 365 nM
Notes: natural RNA segment, single round, ends assumed
Relative to: no-protein control
Direction: higher = stronger binding
Shared flanks, not repeated: GGGAGUUCUACAGUCCGACGAUC … UGGAAUUCUCGGGUGCCAA
Target sequence (chain): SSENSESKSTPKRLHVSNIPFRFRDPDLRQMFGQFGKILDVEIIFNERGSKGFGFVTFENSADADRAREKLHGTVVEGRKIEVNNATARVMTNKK
Oligonucleotide	RBNS enrichment (R)
GGCCUCCCAAAGUGCUGGGAUUACAGGUGUGAGCCACUGUGCCCAGCCCAAACUUUUAAGAUGACCCAAAGUCGUGAGAAUAGGAAAAAGGAAUCUGAUUAACAUUUAUG	0.414
AGCCCACAGCCCGCACUGCCGGCUCACUUGGGUCCUUCCUCGAUAGCUUUGGGCAGAGCCCUUGCUUCCUGGCUGCUUCAGGGCUCAGGGGCUCCCAGCCCUCCUUCCCA	0.233
AACUGUCUACACGUGCACAUAGGCAGACUUUCUCAUAGAAUGUUCUUGAAAGGUGAUUGGCAAAGUCAUGCAGGCCCGCCUUAAAGCGCUGAUUAGAACAGUCCAACACA	1.15
ACUUUUGCUGAUGCUUUUGAAAAUGUUUAUGCCACAGAAUUUGCUAAUAUAUUGUAAUCACAUUCCUUAGGAGGACUUUGGUAAUUGGUUUUAUGCAUUGAUGGUUUUUU	0.563
UGGUCAAUGUAGAUUUCAAGUUGAAAGGCAGUCCCUUUAGUUGGGGGCUGUCCAGAGCUGCAGCAGGGCUUUGCACGGAAGGGGUGGCCCUGUUAGAGUUGCUUCUCCUC	1.67
AAAUGAAAAUUAAUAAAUUCAAAAAUACUAAAAGUCACCUUCUUUGUCACGUUAGCAACCAGUUUCUACUAUUCUGUGCCCAUCCAGUGUCAAUAUCAUUGAUUUCUUUU	0.433
CCUGUCCUGUGCUUGGAUAGUCAGUUGGUUAUUUGUGUAUGAAACAAUGUACAAAUCAAUGUUUUGAAAAUAAUGAUCUCAGACUUUCUAAGUUAAAUUUUAAACAAUUU	0.446
ACCGGGUCCACUGUGGAGCAGCCAUCUAUCUACCUGACUCCUGAGCCAGGCUGCCGUGGUGUCAUUUCUGUCAUCCGUGCUCUGUUUCCUUUUGGAGUUUCUUCUCCACA	0.206
UGGGUCUUUACACCUCUGUGAAGUAGAGAAUUUUGGCAAUGAACUGUUUAACUUGGCCAAUCUAGGCCAUCAACCUAGAUAACUUAGUCCUUUUCAUGUAAAUUUUUGUG	0.263
UUCUGGAAGUUGAUAGUGAACAGUUCUCCGUGUAACAGUGACUCUCCAUGAAAUUCCGUUUCCUCUGUUAACCGUCACUGAGCACUCUUCCUCGGGGCUCUCUGCUGCUC	0.227
UUCAAAAGAGGGCUUUCCAGGGCUCAGCUCCCAACCAGCUGUUAGGACCCCACCCUUUUGCCUUUAUUGUCGACGUGACUCACCAGACGUCGGGGAGAGAGAGCAGUCAG	0.322
GCACUGUCAUCAUCACCCAUAAUGCCUGCAAAGGCCUAGCGGUCCUCAGCCCUGCACAUGAGAGAGGCACAGAGUCUGUCAGCACAAACAGGAAGCAGCUGGGCUUUUAA	0.859

Excerpt of the above (study 2):
Oligonucleotide	fitted relative affinity [z-score]
GACGGATTGGACACTGGGGACGTGCTA	-0.497
TTAGGATTGGACTATCGGTTAGTGCTA	-0.0278
TTAGGACTGAGTATCGATTAGTGCTAG	-0.162
GACGAACTGGGGTATCGAGGCGTGCTA	-0.0435
GACGGACTGGGTATCGGCACGTGCTAG	-0.81
AGGAAGATCATTCTCACTGCGTGCTAG	-0.23
TGGAGAGCATATTCTGTGACGTGCTAG	-0.471
GATGAACTGAGTTTCGAGACGTGCTAG	2.12
TACTCTTGTGACTATGGACCGTGCTAG	0.633
CCCTAGGGGCTCTCAGAGATGTGCTAG	-2.09
TCAGATATCAGACTGGATTAGTGCTAG	0.011
